Results gathered from unrelated publications.
Each line is one published result; not all experiments were run side by side. Numbers after ± are the reported error.

With Nc1ccn([C@@H]2O[C@H](CO)[C@@H](O)C2(F)F)c(=O)n1 the AUC(tau) was 8000 ng·h/mL (human cancer patients, plasma; intravenous, 750 mg/m^2, cycle 1 day 15, together with: lonafarnib 150 mg twice daily).
With CC(C)[C@](O)(c1ccc2cc(OC(F)F)c(OC(F)F)cc2c1)c1c[nH]nn1 the AUC(tau) was 55400 ± 5960 ng·h/mL (human, male, plasma; oral, 600 mg, cycle 2 day 1, steady state).
For Cc1ccc(C(=O)N2CCOC[C@H]2Cc2cccc(-n3nccn3)c2)c(-n2nccn2)c1, the AUC(tau) was 4690 ng·h/mL (healthy human, plasma; oral, 100 mg initial dose, day 8).
For COC(=O)c1ccc2c(c1)NC(=O)/C2=C(\Nc1ccc(N(C)C(=O)CN2CCN(C)CC2)cc1)c1ccccc1, “AUC(tau) steady state” read 354 ng·h/mL (human moderate liver impairment, plasma; oral, 100 mg twice daily, geometric mean).
O=C(NC[C@H]1CN(c2ccc(N3CCOCC3=O)cc2)C(=O)O1)c1ccc(Cl)s1 gave an AUC(tau) of 3050 ± 556 ng·h/mL (human; 20 mg once daily, day 3).
For CC(C)(C)OC[C@@H]1C(=O)NCCN1C(=O)C[C@H](N)Cc1cc(F)c(F)cc1F, “AUC(tau) at steady state” read 376 ± 51.1 ng·h/mL (human; 20 mg once daily, day 10).
CCC1=C(C)CN(C(=O)NCCc2ccc(S(=O)(=O)NC(=O)N[C@H]3CC[C@H](C)CC3)cc2)C1=O: “AUC(tau) steady state” 1790 ± 653 ng·h/mL (human, plasma; oral, 4 mg once daily, together with: evogliptin 5 mg).
CN(C)C(=O)c1cc2cnc(Nc3ccc(N4CCNCC4)cn3)nc2n1C1CCCC1 gave an AUC(tau) ratio of about 10% (human, plasma; oral, 200 mg once daily, steady state; relative to: 600 mg once daily dose).
CCn1c(C(=O)c2cc(C)cc(C#N)c2)c(C(C)C)c(=O)[nH]c1=O: “AUC(tau) at steady state” 3700 to 10200 ng·h/mL (healthy humans, plasma; oral, 75 to 600 mg once daily, 7 days, range of dose-group means).
NC(=O)N1CCC(CC(=O)N2CCC([C@H]3c4ncc(Br)cc4CCc4cc(Cl)cc(Br)c43)CC2)CC1 has an AUC(tau) of 5940 ng·h/mL (human, plasma; oral, 100 mg twice daily, cycle 2 day 15, together with: gemcitabine 1000 mg/m2).
The AUC(tau) of C[C@@H](c1nc(-c2ccc(C#N)cc2)cs1)[C@](O)(Cn1cncn1)c1cc(F)ccc1F is reported as 100000 ng·h/mL (healthy humans, plasma; oral, 200 mg once daily, together with: mycophenolate mofetil 1 g single dose).
CC(C)(C)OC[C@@H]1C(=O)NCCN1C(=O)C[C@H](N)Cc1cc(F)c(F)cc1F: “AUC(tau) steady state” 110 ± 21.7 ng·h/mL (human, plasma; oral, 5 mg once daily, together with: glimepiride 4 mg).
